Measured values gathered from unrelated publications.
Lines come from different studies, so protocols differ. ± gives the spread as reported. ≈ marks a conversion by molar mass, not a printed value.

Protein sequences, listed by entry. Tags and fused reporters are not part of them.
UniProt Q9UL54, whole entry: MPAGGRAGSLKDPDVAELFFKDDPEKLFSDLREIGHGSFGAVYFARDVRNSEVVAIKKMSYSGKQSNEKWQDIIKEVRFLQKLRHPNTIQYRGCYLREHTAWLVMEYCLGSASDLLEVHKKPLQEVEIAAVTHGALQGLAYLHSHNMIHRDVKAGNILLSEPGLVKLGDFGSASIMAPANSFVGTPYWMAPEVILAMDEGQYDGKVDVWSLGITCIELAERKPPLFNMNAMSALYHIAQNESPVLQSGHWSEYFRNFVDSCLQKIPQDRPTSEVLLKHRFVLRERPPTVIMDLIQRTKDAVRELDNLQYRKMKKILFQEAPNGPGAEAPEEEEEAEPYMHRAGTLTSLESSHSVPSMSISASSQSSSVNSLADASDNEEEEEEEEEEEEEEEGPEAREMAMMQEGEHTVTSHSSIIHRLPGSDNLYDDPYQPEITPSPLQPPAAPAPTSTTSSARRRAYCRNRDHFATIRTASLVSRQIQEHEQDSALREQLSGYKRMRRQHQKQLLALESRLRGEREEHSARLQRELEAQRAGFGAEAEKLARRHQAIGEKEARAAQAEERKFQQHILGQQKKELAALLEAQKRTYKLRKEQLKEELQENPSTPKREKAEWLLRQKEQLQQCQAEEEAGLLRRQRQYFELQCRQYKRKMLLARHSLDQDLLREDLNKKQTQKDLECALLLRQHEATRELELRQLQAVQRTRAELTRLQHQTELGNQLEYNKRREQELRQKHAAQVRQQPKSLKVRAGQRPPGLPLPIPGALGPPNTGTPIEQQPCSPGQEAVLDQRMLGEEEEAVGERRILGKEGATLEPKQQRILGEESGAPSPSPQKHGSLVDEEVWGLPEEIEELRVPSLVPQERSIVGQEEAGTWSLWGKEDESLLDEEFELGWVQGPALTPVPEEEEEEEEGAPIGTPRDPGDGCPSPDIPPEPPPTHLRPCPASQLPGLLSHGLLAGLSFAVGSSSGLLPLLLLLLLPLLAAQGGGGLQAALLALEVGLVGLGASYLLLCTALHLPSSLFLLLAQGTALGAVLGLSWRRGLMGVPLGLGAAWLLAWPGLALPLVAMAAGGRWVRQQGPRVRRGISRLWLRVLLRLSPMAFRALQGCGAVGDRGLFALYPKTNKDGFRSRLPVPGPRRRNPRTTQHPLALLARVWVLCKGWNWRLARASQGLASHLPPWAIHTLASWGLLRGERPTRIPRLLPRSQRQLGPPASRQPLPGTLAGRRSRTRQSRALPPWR
UniProt Q9UIF9, whole entry: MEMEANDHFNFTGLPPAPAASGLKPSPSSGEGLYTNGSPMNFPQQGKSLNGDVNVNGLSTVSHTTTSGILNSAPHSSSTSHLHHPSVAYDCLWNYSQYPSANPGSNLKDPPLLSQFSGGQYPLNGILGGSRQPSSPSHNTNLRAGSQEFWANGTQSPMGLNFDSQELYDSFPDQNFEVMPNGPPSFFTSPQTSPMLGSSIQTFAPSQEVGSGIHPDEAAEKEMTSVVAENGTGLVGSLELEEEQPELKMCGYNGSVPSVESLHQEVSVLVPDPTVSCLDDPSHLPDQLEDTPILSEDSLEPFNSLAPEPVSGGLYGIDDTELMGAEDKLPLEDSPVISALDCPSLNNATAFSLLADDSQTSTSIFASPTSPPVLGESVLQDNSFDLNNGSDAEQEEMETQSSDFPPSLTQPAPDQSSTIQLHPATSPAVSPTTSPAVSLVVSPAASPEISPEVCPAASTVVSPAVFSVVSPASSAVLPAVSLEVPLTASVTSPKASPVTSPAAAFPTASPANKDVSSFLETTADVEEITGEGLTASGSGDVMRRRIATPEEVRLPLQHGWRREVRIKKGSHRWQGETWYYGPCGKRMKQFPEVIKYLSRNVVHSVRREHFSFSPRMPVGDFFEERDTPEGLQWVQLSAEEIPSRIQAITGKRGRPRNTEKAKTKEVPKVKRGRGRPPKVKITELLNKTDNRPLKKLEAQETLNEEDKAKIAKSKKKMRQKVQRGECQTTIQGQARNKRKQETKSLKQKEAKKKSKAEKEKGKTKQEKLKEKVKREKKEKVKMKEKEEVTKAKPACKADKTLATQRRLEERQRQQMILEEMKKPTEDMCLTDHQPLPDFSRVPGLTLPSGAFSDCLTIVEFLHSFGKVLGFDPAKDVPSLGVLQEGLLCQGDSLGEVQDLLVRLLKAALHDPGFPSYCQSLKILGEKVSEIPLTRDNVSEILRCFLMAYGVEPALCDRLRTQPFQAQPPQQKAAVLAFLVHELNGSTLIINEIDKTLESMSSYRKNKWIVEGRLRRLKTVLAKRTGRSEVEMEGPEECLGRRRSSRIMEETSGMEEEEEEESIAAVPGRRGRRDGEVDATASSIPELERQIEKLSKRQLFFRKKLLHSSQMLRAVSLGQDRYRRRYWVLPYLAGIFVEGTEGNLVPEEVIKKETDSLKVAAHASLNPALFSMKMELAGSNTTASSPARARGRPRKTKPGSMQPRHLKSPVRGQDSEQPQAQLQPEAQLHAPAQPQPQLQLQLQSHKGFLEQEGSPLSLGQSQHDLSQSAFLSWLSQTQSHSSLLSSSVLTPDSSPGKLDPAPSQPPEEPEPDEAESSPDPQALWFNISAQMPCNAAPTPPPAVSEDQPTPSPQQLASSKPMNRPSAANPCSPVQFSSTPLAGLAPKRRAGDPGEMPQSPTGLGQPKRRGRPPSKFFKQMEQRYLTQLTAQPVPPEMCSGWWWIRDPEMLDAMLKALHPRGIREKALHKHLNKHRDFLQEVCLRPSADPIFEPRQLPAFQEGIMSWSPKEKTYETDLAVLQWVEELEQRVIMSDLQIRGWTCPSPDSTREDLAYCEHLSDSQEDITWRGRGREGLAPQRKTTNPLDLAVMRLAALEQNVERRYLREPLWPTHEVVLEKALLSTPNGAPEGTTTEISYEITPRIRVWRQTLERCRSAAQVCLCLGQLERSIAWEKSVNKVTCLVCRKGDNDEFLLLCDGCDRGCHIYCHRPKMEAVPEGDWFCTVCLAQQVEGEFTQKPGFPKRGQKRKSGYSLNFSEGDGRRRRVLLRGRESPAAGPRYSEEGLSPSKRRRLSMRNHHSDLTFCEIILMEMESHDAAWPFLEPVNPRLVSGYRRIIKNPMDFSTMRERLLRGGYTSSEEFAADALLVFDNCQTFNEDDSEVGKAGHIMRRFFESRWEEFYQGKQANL
UniProt P10636, whole entry, looked up: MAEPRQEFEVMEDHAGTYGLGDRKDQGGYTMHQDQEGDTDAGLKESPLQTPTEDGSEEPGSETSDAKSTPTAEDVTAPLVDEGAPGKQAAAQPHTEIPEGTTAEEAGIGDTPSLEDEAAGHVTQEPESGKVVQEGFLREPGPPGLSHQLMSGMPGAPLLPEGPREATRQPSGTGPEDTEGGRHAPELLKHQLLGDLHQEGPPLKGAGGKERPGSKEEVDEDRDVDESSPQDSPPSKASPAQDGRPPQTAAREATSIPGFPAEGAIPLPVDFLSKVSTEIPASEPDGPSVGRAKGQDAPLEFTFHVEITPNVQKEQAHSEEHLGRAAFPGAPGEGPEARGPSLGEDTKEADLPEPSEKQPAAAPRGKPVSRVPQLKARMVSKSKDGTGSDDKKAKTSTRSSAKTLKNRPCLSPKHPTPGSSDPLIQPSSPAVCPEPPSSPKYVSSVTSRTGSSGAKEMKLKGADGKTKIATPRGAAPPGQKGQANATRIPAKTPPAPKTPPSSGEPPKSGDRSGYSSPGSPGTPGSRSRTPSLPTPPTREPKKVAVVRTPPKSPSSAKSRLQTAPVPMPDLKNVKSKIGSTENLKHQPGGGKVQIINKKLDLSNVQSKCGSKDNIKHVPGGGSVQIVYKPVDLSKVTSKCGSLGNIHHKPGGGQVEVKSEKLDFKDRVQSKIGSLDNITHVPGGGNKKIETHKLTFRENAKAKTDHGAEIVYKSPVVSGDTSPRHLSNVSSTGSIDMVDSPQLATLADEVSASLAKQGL

Cc1cc(C)c(C(=O)OCC(=O)[C@H](CCCCN)NC(=O)[C@H](Cc2ccccc2)NC(=O)OCc2ccccc2)c(C)c1 — logD (HPLC; pH 7.4): 2.08 ± 0.08
O=C(Nc1cccnn1)N1CC(Oc2ccc(-c3ccccc3F)cn2)C1 — terminal half-life (healthy humans; oral, 5 to 300 mg, single dose, range of means): 5.4 to 11.2 h
O=C(Nc1ccc(-c2nc3ccccc3s2)cc1)C1CCN(S(=O)(=O)c2ccccc2Cl)CC1 — aqueous solubility (turbidimetry; sodium phosphate buffer; pH 7.4, 1% DMSO): 12.8 µM (≈ 6.58 µg/mL)
COc1ccc(N2C(=O)N(c3c(C)cccc3Cl)Cc3cnc(Nc4ccc(N5CCN(C)CC5)cc4OC)nc32)nc1 — half-life (mouse liver microsomes): 0.617 h
CCN1CCN(Cc2ccc(NC(=O)c3ccc(C)c(Oc4ncnc5cc(OC)c(OC)cc45)c3)cc2C(F)(F)F)CC1 — residual probe binding (TAOK2 (Homo sapiens, UniProt Q9UL54); KINOMEscan competition binding; 1.0 µM): 0.1%
CC[C@@H]1C(=O)N(C)c2cnc(Nc3ccc(C(=O)NC4CCN(C)CC4)cc3OC)nc2N1C1CCCC1 — delta Tm (BAZ2A (Homo sapiens, UniProt Q9UIF9); 10 µM): 0.12 ± 0.22 °C
CCc1c(-c2ccccc2)nn2c(=O)cc(-c3cccc(C(=O)O)c3)[nH]c12 — half-life (mouse; intravenous): < 1 h
Fc1cccc(-n2cnc3c(NCc4nc5cc(Cl)ccc5[nH]4)nc(N4CCNCC4)nc32)c1 — solubility (DMEM with 10% FBS): 60 µM
CS(=O)(=O)c1ccc(NC(=O)CSc2nnc(-c3ccccc3F)n2-c2ccccc2)cc1 — logD (octanol/buffer; pH 11): 1.74
COc1cc(CC(=O)NCC(NC(=O)C(CCCNC(=O)c2cccc(I)c2)NC(=O)C(Cc2ccc(C(F)(F)P(=O)(O)O)cc2)NC(=O)c2ccc(C)c(Br)c2)C(N)=O)ccc1O (stereo not shown) — CL/F (HPLC-MS/MS; mouse, plasma; intraperitoneal, 20 mg/kg): 0.047 L/h
Cc1cc(C)c(CNC(=O)c2cc(-c3ccc(N4CCN(CCNC(=O)CC56CC7CC(CC(C7)C5)C6)CC4)nc3)cc3c2cnn3C(C)C)c(=O)[nH]1 — Cmax (mouse Swiss albino male, plasma; i.p., 50 mg/kg single): 2900 nM
CCN(CC)C(=O)Oc1ccc(C(=O)Nc2cccc3cc[nH]c23)cc1 — solubility (nephelometry; aqueous solution; room temperature): 100 µM
Nc1c(C(=O)Nc2c(F)cc(F)cc2Br)sc2nc3c(cc12)CCC3 — total SOD activity (H1299; concentration not given, 48 h): decreased
Fc1cc(-c2ccc3c(n2)[nH]c2ccncc23)ccn1 [isotope labelled] — specific binding (Microtubule-associated protein tau, paired helical filaments (MAPT, Homo sapiens, UniProt P10636); radioligand binding; PHF tau brain homogenate; 6.91 nM; higher = more binding): 6 a.u.
COc1cc(OC)c(NC(=O)CSc2nnc(-c3ccccc3)n2C)cc1Cl — solubility (aqueous buffer; pH 7.4): < 2.65 µg/mL
Cc1c(O)cc2c(c1C)O[C@](C)(CCCC(C)C)CC2 — Akt Ser473 phosphorylation decrease (LNCaP; western blot; non-raft membrane fractions; concentration not given, 24 h): > 65%

Some of these lines once more:
O=C(Nc1cccnn1)N1CC(Oc2ccc(-c3ccccc3F)cn2)C1 — terminal half-life (healthy humans; oral, 5 to 300 mg, single dose, range of means): 5.4 to 11.2 h
COc1cc(OC)c(NC(=O)CSc2nnc(-c3ccccc3)n2C)cc1Cl — solubility (aqueous buffer; pH 7.4): < 2.65 µg/mL
COc1cc(CC(=O)NCC(NC(=O)C(CCCNC(=O)c2cccc(I)c2)NC(=O)C(Cc2ccc(C(F)(F)P(=O)(O)O)cc2)NC(=O)c2ccc(C)c(Br)c2)C(N)=O)ccc1O (stereo not shown) — CL/F (HPLC-MS/MS; mouse, plasma; intraperitoneal, 20 mg/kg): 0.047 L/h
